Published values pooled from the literature.
± marks the error that the study gave.
Cell line: OVCAR-3

SMILES | assay | setting | how to read | endpoint | value
COc1ccc2c(c1)/C(=N\Nc1nnc3n1N=C(c1ccccc1)CS3)C(=O)N2 | cell growth or viability, SRB | 10 µM |  | inhibition | 17%
CC/C=C\C/C=C\C/C=C\C/C=C\C/C=C\C/C=C\CCC(=O)Nc1ccn(C2OC(CO)C(O)C2(F)F)c(=O)n1 (stereo not drawn) | NCI60 screen |  |  | TGI | 23.5 µM
CC(=O)OC[C@H]1O[C@@H](Sc2sc(C(=O)c3ccc(C)cc3)c(N)c2-c2nc3ccccc3s2)[C@H](OC(C)=O)[C@@H](OC(C)=O)[C@@H]1OC(C)=O | SRB | 10 µM, 48 h | reference: untreated | growth | 59.4%
CC(=O)c1cccc(NC2C(N)C(NC(=O)N(C)C)(C(C)O)C(O)C2(O)COC(=O)c2c(C)cccc2O)c1 (stereo not drawn) | cell growth or viability, SRB |  |  | GI50 | 0.041 µM
Cc1cc(C)c(N[C](NCc2cccc(N[C](Nc3c(C(C)C)cccc3C(C)C)=[Pd-]([Cl])([Cl])[C]#[N+]c3c(C(C)C)cccc3C(C)C)c2)=[Au][Cl])c(C)c1 | cell growth or viability |  |  | IC50 | 80 µM
CC(=O)O[C@H]1C(=O)[C@]2(C)[C@@H](OC(=O)[C@H](N)CSC3CC(=O)N(CCC(=O)Nc4ccc(-c5ccc(/N=N/c6ccc7c(S(=O)(=O)O)cc(S(=O)(=O)O)c(N)c7c6O)c(C)c5)cc4C)C3=O)C[C@H]3OC[C@@]3(OC(C)=O)[C@H]2[C@H](OC(=O)c2ccccc2)[C@]2(O)C[C@H](OC(=O)[C@H](O)[C@@H](NC(=O)c3ccccc3)c3ccccc3)C(C)=C1C2(C)C (stereo partly drawn) | flow cytometry | concentration not given, 4 h |  | cellular uptake | 29.1%
Cc1cc(C)c([N+]#[C][Pd-]([Cl])([Cl])=[C](Nc2ccc(CN[C](Nc3c(C(C)C)cccc3C(C)C)=[Au][Cl])cc2)Nc2c(C)cc(C)cc2C)c(C)c1 | cell growth or viability |  |  | IC50 | > 100 µM
CCC(=C(c1ccc(Cl)cc1)c1ccc(OCCCN(C)C)cc1)c1ccc(OC)cc1 | cell growth or viability |  |  | GI50 | 3.27 µM
CC1(C)[C@@H](O)CC[C@]2(C)[C@H]3C(=O)C=C4[C@@H]5C[C@@](C)(C(=O)O)CC[C@]5(C)CC[C@@]4(C)[C@]3(C)CC[C@@H]12 | cell growth or viability, MTT | 48 h |  | IC50 | 72.4 µM
CC(C)c1cccc(C(C)C)c1[N+]#[C][Pt-]([Cl])([Cl])=[C](Nc1cccc(CN[C](NC(C)(C)C)=[Au][Cl])c1)Nc1c(C(C)C)cccc1C(C)C | cell growth or viability |  |  | IC50 | > 100 µM
CC(=O)OC[C@H]1O[C@@H](Sc2sc(C(=O)c3ccc(Br)cc3)c(N)c2-c2nc3ccccc3s2)[C@H](OC(C)=O)[C@@H](OC(C)=O)[C@@H]1OC(C)=O | SRB | 10 µM, 48 h | reference: untreated | growth | 76.2%
COc1ccc(CC2COC(=O)C2Cc2ccc3c(c2)OCO3)cc1OC (mixture of isomers) | cytotoxicity, MTT | 72 h |  | IC50 | 14.3 ± 0.32 µM
